Experimental data collected from several papers.
± gives the spread as reported.
blaNDM-1: Metallo-beta-lactamase type 2 (blaNDM-1, Klebsiella pneumoniae, UniProt C7C422)
Sequence of UniProt C7C422 (whole entry, looked up): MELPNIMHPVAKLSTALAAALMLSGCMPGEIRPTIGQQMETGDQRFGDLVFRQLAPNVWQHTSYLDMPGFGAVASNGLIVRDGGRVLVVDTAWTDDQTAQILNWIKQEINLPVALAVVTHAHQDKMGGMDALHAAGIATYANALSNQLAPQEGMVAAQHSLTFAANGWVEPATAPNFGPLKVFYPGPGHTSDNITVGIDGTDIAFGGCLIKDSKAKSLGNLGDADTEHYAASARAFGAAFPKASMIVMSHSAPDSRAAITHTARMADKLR
MCA2: Metacaspase-2 (MCA2, Trypanosoma brucei brucei, UniProt Q585F3)
Sequence of UniProt Q585F3 (whole entry, looked up): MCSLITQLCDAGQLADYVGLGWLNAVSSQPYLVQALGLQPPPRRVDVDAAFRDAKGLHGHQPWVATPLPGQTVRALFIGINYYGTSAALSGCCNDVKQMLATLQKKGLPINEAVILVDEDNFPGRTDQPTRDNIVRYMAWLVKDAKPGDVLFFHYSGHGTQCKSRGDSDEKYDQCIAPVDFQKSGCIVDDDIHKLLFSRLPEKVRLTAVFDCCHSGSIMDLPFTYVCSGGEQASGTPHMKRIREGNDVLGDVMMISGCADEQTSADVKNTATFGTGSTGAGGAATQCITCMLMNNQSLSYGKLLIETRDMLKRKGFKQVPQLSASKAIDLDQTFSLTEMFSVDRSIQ
Sequence of UniProt A0A024B7W1 (whole entry, looked up): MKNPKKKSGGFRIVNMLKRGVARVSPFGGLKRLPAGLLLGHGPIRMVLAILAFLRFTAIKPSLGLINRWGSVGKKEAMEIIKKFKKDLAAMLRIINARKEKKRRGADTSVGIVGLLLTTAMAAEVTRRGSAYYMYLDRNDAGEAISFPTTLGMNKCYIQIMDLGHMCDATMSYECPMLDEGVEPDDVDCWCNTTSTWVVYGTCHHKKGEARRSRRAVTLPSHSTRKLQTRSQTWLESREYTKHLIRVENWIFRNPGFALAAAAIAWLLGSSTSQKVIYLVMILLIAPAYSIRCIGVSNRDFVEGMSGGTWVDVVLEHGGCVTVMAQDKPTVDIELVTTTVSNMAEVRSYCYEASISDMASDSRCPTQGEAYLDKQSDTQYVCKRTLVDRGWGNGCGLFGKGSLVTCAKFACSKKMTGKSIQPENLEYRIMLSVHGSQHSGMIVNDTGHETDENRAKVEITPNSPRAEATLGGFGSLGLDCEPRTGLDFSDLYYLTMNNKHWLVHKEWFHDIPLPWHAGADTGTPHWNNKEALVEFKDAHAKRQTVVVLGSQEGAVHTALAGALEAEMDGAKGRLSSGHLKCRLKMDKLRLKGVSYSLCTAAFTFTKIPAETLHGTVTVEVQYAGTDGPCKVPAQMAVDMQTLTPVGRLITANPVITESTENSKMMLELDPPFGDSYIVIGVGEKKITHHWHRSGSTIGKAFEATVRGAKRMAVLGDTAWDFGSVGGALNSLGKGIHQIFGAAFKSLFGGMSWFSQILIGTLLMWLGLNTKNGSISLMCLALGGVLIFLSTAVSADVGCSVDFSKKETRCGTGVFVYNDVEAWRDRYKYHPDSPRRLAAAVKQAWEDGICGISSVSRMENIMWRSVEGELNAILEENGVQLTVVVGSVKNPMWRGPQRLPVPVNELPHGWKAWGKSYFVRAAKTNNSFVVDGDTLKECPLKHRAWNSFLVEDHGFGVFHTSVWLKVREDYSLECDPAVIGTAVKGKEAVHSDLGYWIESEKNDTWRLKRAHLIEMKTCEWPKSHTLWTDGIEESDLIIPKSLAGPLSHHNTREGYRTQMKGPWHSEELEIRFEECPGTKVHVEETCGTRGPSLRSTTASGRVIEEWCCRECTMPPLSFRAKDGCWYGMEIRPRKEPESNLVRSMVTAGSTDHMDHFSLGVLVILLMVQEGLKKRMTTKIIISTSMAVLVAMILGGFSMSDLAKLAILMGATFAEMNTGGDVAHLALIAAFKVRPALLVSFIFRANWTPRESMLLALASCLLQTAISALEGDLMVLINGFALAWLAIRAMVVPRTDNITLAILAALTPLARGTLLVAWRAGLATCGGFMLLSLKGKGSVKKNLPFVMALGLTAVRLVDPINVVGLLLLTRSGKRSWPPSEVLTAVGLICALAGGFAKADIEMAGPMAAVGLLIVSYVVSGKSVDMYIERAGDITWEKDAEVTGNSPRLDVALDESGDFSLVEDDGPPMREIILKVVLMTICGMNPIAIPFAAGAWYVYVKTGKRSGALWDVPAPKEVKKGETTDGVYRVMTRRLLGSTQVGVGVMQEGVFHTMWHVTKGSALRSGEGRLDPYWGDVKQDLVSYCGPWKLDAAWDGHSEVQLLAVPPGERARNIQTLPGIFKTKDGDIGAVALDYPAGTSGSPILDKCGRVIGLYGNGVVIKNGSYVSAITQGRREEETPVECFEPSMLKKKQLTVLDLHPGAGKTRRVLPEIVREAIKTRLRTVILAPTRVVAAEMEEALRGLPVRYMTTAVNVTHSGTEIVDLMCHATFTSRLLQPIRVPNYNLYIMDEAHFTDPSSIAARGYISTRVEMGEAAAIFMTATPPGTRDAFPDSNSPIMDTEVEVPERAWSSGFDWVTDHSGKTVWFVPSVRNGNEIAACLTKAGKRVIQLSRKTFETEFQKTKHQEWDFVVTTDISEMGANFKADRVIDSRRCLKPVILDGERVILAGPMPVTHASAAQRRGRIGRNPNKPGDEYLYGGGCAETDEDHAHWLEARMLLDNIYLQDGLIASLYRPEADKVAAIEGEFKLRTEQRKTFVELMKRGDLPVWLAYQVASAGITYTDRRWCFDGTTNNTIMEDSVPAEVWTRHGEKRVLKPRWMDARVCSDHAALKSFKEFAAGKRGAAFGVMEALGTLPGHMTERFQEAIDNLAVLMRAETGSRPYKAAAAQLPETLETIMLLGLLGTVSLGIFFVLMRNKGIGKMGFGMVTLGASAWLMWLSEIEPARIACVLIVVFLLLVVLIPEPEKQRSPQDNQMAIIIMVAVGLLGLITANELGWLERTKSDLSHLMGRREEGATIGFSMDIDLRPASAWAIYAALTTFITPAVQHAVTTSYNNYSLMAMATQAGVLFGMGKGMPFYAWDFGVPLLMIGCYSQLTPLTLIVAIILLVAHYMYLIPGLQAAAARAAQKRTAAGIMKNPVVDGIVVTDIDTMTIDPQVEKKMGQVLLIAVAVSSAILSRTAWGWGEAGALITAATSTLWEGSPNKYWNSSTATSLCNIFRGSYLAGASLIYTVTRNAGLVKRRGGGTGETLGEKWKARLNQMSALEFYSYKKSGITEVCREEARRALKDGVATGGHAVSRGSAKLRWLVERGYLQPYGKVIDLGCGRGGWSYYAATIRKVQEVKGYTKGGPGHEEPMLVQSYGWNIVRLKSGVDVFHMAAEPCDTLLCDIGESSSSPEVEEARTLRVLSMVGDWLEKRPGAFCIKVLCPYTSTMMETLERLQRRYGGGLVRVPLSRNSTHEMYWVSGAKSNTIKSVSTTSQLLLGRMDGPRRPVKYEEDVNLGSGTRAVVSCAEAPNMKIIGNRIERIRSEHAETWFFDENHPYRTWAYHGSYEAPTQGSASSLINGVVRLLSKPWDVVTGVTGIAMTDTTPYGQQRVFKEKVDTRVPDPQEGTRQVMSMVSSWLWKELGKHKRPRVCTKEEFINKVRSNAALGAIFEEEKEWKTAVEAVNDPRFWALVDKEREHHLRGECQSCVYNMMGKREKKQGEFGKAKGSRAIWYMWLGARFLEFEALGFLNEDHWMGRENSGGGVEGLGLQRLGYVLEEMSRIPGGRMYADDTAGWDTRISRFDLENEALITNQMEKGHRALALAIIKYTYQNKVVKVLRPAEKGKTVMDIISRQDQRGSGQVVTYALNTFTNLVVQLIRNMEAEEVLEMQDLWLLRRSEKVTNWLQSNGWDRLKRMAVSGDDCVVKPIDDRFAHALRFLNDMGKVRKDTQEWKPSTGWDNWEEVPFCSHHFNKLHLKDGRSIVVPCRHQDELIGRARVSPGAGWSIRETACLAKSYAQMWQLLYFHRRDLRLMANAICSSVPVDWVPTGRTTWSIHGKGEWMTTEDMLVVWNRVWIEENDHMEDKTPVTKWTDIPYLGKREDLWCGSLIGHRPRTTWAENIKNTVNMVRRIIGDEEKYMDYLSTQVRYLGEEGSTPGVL
Sequence of UniProt Q13451 (whole entry, looked up): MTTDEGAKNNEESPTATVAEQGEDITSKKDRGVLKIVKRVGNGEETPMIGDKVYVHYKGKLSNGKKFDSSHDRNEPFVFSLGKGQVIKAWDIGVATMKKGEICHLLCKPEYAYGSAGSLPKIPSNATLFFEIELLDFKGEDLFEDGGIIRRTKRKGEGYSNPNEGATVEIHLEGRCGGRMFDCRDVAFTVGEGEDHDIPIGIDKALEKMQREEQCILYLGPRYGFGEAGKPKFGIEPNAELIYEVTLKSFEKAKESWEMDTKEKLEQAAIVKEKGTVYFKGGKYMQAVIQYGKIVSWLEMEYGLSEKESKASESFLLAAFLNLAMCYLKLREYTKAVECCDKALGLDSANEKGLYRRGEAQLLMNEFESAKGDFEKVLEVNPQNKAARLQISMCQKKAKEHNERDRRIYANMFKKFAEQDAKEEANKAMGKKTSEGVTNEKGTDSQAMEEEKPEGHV
Sequence of UniProt P41143 (whole entry, unmodified, looked up): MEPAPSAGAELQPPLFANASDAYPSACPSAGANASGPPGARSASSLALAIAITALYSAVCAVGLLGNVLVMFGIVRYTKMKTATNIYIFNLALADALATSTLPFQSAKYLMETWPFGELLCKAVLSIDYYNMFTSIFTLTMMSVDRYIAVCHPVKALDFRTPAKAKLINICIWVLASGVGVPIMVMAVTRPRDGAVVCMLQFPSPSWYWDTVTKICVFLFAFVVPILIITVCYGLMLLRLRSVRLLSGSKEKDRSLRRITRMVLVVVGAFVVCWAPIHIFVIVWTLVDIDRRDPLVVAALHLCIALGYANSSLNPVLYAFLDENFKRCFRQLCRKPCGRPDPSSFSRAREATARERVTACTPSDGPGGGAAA

| SMILES | target | test | system | setting | Ki |
| --- | --- | --- | --- | --- | --- |
| CCCC[C@@H]1NC(=O)[C@@H](CCC(N)=O)NC(=O)[C@H]2CCCN2C(=O)[C@H](Cc2c[nH]c3ccccc23)NC(=O)[C@@H]2C[C@@H](O)CN2C(=O)[C@H](Cc2ccccc2CN)NC(=O)[C@@H]2CCCN2C(=O)[C@@H](CS)NC1=O | blaNDM-1 | enzyme activity, inhibitor |  | together with: nitrocefin 1.5 µM | 24500 nM |
| CC(=O)N[C@@H](CC(C)C)C(=O)N[C@@H](CC(C)C)C(=O)N[C@@H](CC(C)C)C(=O)N[C@@H](CC(C)C)C(=O)N[C@@H](CC(C)C)C(=O)N[C@@H](CCCN=C(N)N)C(=O)N[C@H](C(=O)N[C@@H](CCCCN)C(=O)N[C@@H](CCCN=C(N)N)C(N)=O)C(C)C | Proprotein convertase subtilisin/kexin type 7 (Homo sapiens, UniProt Q16549) | enzyme activity, inhibitor |  |  | 1800 nM |
| CC[C@H](C)[C@H](NC(=O)[C@@H]1CCCN1C(=O)[C@H](CCC(=O)O)NC(=O)[C@H](CCSC)NC(=O)CNC(=O)[C@H](CC(N)=O)NC(=O)CNC(=O)CNC(=O)[C@H](CCC(=O)O)NC(=O)CNC(=O)[C@H](CCCNC(=N)N)NC(=O)[C@H](CCC(N)=O)NC(=O)[C@H](Cc1ccc(O)cc1)NC(=O)[C@H](CC(C)C)NC(=O)[C@H](CCCCN)NC(=O)[C@@H]1CCCN1C(=O)[C@H](CCC(N)=O)NC(=O)[C@H](C)NC(=O)[C@@H](NC(=O)[C@H](CCC(=O)O)NC(=O)[C@H](C)NC(=O)[C@H](CCC(=O)O)NC(=O)[C@@H](NC(=O)[C@@H]1CCCN1C(=O)[C@@H](N)CCCCN)C(C)C)C(C)C)C(=O)N1CCC[C@H]1C(=O)N[C@@H](CCC(=O)O)C(=O)N[C@@H](CC(=O)O)C(=O)N[C@H](C(=O)N[C@@H](CC(C)C)C(=O)N[C@@H](CC(N)=O)C(=O)N[C@@H](CCC(=O)O)C(=O)N[C@@H](C)C(=O)N[C@@H](CC(C)C)C(=O)N[C@@H](CC(N)=O)C(=O)N[C@@H](C)C(=O)O)C(C)C | Prothrombin, gamma-thrombin (F2, Homo sapiens, UniProt P00734) |  |  | pH 8 | 26200 ± 950 nM |
| O=C1c2ccccc2CCCN1CCCCN1CCN(c2cccc(Cl)c2Cl)CC1 | HTR2B (Homo sapiens, UniProt P41595) | ligand displacement, radioligand |  |  | 0.6 nM |
| C[C@H](NC(=O)[C@H](CCCCN)NC(=O)c1ccccc1N)C(=O)N[C@@H](CCCNC(=N)N)C(=O)N[C@@H](Cc1ccc(O)cc1)C(=O)N[C@@H](CO)C(=O)N[C@@H](C)C(=O)N[C@@H](CCC(N)=O)C(=O)NCCNc1ccc([N+](=O)[O-])cc1[N+](=O)[O-] | MCA2 | enzyme activity, competitive inhibitor | Trypanosoma brucei | together with: Z-FR-AMC substrate | 4100 nM |
| Cc1cc(O)cc(C)c1C[C@H](N)C(=O)N[C@H](CCCNC(=N)N)C(=O)N[C@@H](Cc1ccccc1)C(=O)N(C)CC(=O)N(C)Cc1cc(C(F)(F)F)cc(C(F)(F)F)c1 | OPRD1 (Homo sapiens, UniProt P41143, N90S) |  |  |  | 5.17 ± 0.62 nM |
| CC(C)C[C@@H]1NC(=O)[C@@H]2CCCN2C(=O)[C@@H](CS)NC(=O)[C@H](Cc2ccc(O)cc2)NC(=O)[C@@H](CCCNC(=N)N)NC(=O)[C@@H](CCCNC(=N)N)NC(=O)C(C)(C)NC(=O)[C@@H]2CCCN2C1=O | blaNDM-1 | enzyme activity, inhibitor |  | together with: nitrocefin 1.5 µM | 1620 nM |
| CC(C)CCNC(=O)[C@H](CCCCN)NC(=O)[C@H](CCCCN)NC(=O)Cc1cccc(CNC(=O)[C@@H](C)NC(=N)N)c1 | Genome polyprotein, NS2B-NS3 protease (ZIKV, UniProt A0A024B7W1) | inhibitor | Zika virus |  | 1640 ± 70 nM |
| C[C@H](NC(=O)[C@H](CO)NC(=O)[C@H](CO)NC(=O)[C@H](CCCNC(=N)N)NC(=O)[C@H](CCC(=O)O)NC(=O)[C@H](CCCCN)NC(=O)c1ccccc1N)C(=O)N[C@@H](CCC(N)=O)C(=O)NCCNc1ccc([N+](=O)[O-])cc1[N+](=O)[O-] | MCA2 | enzyme activity, competitive inhibitor | Trypanosoma brucei | together with: Z-FR-AMC substrate | 7800 nM |
| COc1ccc(CC[C@H]2OC(=O)[C@@H]3CCCCN3C(=O)C(=O)C(C)(C)COC(=O)/C=C/CCN(C)C(=O)[C@H](CC(C)C)N(C)C(=O)[C@@H]3CCCN3C(=O)[C@H](Cc3ccccc3)N(C)C(=O)[C@H](c3ccccc3)NC(=O)CCC(=O)Nc3cccc2c3)cc1OC | FKBP5 (Homo sapiens, UniProt Q13451) | enzyme activity, inhibitor |  |  | 184 nM |

Excerpt of the above:
| SMILES | target | test | system | setting | Ki |
| --- | --- | --- | --- | --- | --- |
| CC(C)CCNC(=O)[C@H](CCCCN)NC(=O)[C@H](CCCCN)NC(=O)Cc1cccc(CNC(=O)[C@@H](C)NC(=N)N)c1 | Genome polyprotein, NS2B-NS3 protease (ZIKV, UniProt A0A024B7W1) | inhibitor | Zika virus |  | 1640 ± 70 nM |
| C[C@H](NC(=O)[C@H](CO)NC(=O)[C@H](CO)NC(=O)[C@H](CCCNC(=N)N)NC(=O)[C@H](CCC(=O)O)NC(=O)[C@H](CCCCN)NC(=O)c1ccccc1N)C(=O)N[C@@H](CCC(N)=O)C(=O)NCCNc1ccc([N+](=O)[O-])cc1[N+](=O)[O-] | MCA2 | enzyme activity, competitive inhibitor | Trypanosoma brucei | together with: Z-FR-AMC substrate | 7800 nM |
